Measurements gathered from unrelated publications.
Each numbered part is a random draw from the data of one study; scales do not carry over between parts. Several values in a cell are separate wells, animals, samples, runs or records.
Chain of UniProt P14616 (whole entry, looked up): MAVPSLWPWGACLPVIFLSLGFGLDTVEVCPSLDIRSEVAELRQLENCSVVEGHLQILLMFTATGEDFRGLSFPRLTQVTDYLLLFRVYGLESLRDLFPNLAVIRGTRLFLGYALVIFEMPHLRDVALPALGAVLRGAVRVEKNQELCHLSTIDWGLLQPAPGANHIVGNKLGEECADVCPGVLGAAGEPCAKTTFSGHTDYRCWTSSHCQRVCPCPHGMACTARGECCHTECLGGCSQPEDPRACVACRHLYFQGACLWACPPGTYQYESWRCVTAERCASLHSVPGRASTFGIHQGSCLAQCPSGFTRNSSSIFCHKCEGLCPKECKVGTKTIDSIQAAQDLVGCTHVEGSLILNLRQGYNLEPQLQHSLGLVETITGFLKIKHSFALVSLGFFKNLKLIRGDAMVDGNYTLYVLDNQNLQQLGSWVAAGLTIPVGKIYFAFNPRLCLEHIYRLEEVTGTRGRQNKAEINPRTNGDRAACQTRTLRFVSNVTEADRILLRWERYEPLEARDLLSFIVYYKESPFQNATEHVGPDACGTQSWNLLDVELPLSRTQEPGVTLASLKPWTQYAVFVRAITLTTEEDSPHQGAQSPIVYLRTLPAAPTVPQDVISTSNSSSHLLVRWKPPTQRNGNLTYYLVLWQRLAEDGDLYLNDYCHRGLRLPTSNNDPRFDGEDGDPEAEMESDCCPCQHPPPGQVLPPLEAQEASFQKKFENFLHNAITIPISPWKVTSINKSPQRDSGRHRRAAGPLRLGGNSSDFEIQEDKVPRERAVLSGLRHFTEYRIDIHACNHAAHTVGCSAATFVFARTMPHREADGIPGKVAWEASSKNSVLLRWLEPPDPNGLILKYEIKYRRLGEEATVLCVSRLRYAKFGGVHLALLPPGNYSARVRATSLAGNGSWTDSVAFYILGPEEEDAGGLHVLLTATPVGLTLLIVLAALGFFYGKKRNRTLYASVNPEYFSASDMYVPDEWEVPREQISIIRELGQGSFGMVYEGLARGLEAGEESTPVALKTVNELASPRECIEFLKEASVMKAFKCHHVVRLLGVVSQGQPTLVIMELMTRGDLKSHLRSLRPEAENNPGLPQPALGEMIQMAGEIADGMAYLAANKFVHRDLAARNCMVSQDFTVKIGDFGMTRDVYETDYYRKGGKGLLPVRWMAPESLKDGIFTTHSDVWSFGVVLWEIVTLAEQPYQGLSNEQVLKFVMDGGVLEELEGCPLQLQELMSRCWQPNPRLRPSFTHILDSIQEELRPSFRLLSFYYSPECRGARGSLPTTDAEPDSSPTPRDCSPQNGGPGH
Chain of UniProt Q96PY6 (whole entry, looked up): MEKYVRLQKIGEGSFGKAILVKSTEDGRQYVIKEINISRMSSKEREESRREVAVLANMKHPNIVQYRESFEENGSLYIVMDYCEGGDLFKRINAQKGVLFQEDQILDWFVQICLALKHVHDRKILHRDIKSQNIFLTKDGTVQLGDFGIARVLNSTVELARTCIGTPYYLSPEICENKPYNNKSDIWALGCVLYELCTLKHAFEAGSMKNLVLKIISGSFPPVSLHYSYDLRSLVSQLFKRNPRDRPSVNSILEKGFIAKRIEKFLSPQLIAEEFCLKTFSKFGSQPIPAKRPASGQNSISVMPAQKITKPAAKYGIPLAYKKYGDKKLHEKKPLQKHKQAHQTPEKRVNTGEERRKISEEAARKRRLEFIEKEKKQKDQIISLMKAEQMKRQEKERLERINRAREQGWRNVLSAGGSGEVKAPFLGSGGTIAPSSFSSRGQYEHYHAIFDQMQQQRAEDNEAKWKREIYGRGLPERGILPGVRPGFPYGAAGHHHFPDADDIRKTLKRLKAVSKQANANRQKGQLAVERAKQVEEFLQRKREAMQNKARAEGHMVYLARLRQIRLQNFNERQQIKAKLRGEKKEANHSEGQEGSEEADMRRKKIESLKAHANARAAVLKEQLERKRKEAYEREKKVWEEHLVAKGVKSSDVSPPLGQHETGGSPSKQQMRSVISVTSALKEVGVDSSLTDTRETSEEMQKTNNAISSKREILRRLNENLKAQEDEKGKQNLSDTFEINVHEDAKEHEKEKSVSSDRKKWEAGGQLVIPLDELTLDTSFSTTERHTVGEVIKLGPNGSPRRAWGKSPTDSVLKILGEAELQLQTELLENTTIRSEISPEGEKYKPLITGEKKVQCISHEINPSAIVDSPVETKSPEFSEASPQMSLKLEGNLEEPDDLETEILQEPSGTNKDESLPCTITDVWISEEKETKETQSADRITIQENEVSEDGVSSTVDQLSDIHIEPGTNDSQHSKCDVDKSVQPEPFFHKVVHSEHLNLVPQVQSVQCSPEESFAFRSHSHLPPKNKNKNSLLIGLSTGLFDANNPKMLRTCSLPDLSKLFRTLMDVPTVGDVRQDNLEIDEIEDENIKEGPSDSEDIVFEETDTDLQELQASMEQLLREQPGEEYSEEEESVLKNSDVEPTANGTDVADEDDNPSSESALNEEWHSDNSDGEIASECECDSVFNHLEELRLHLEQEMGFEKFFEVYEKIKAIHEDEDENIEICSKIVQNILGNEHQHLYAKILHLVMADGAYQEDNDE
Chain of UniProt Q16539 (whole entry, looked up): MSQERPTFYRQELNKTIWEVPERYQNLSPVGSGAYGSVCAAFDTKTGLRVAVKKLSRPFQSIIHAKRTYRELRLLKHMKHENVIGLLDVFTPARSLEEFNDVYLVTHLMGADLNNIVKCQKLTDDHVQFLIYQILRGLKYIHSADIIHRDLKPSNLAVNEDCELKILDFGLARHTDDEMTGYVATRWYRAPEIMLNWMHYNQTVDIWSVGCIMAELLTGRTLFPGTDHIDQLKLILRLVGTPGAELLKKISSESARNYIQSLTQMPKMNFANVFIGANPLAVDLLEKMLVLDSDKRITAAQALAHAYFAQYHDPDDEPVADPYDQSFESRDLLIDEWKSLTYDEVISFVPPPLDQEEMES
Chain of UniProt P15056 (whole entry, looked up): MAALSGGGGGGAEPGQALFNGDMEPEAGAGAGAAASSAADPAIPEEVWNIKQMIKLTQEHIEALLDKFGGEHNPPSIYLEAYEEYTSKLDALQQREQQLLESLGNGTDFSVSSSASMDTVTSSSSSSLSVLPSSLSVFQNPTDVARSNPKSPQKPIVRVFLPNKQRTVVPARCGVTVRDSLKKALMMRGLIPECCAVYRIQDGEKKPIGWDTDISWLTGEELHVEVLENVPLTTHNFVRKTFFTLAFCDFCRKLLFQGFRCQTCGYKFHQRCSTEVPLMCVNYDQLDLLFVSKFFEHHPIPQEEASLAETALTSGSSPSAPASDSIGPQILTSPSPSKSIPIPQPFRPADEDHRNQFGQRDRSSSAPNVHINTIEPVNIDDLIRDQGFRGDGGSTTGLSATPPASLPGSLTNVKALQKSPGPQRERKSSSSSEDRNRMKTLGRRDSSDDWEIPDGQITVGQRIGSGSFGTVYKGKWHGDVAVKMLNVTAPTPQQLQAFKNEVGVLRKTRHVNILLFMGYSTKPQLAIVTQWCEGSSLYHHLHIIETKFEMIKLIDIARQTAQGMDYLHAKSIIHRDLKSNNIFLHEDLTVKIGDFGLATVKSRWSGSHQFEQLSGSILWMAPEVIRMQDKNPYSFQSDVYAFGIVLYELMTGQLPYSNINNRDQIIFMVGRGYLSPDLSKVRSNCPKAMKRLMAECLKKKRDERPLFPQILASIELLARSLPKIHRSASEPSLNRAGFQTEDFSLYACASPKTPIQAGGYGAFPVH
Chain of UniProt O43318 (whole entry, looked up): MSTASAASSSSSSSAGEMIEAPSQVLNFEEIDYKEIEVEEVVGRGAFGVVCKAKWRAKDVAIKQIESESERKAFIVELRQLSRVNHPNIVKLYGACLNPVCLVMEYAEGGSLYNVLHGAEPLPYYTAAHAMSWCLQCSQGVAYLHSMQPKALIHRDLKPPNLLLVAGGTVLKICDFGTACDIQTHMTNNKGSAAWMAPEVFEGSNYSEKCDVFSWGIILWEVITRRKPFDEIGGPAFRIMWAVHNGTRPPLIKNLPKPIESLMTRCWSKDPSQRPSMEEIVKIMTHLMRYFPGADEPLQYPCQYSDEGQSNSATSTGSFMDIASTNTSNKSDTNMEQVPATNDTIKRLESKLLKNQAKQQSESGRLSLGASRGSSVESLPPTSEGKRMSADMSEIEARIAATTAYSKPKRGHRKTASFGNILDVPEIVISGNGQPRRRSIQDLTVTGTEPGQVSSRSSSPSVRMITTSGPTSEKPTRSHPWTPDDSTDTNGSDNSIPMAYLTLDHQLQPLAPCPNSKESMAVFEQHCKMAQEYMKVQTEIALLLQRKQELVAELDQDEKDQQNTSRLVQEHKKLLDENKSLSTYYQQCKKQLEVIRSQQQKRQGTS

Study 1 — technique: competition with immobilised ligand; concentration: 0.1 µM; quantity: remaining binding
SMILES: COCCOc1nc(-c2ccc(Cl)nc2)nc2c1CN(C(=O)c1ncn3ccccc13)CC2
Tyrosine-protein kinase JAK3, JH1 (JAK3, Homo sapiens, UniProt P52333); cell-free assay: 93%
Tyrosine-protein kinase ABL1, phosphorylated (ABL1, Homo sapiens, UniProt P00519, M351T); cell-free assay: 100%
Mitogen-activated protein kinase 14 (MAPK14, Homo sapiens, UniProt Q16539); cell-free assay: 100%
Serine/threonine-protein kinase Nek1 (NEK1, Homo sapiens, UniProt Q96PY6); cell-free assay: 100%
Mitogen-activated protein kinase kinase kinase 7 (MAP3K7, Homo sapiens, UniProt O43318); cell-free assay: 93%
Serine/threonine-protein kinase B-raf (BRAF, Homo sapiens, UniProt P15056); cell-free assay: 100%
Tyrosine-protein kinase ABL1, non-phosphorylated (ABL1, Homo sapiens, UniProt P00519, F317I); binding: 100%
Insulin receptor-related protein (INSRR, Homo sapiens, UniProt P14616); cell-free assay: 100%

Study 2 — technique: LC-MS/MS; host: human cancer patients; sample: plasma; quantity: plasma concentration
Compound: COc1ccc(-c2c(Nc3ccccn3)[nH]c3c(C4=CCCCC4)c(-c4ccccc4)nn3c2=O)cc1
item: S-adenosylmethionine; 50 mg QD, 2 h, median, cycle 1 day 50: 19.4 ng/mL
item: methionine; 200 mg BID, 8 h, mean, cycle 1 day 200: 75800 ng/mL
item: methionine; 200 mg BID, 0 h, geometric mean, cycle 1 day 200: 66000 ng/mL
item: S-adenosylmethionine; 50 mg QD, 4 h, mean, cycle 1 day 50: 22.1 ng/mL
item: S-adenosylmethionine; 200 mg BID, 4 h, mean, cycle 1 day 200: 11.5 ng/mL
item: S-adenosylmethionine; 50 mg QD, 0 h, mean, cycle 1 day 50: 24.1 ng/mL
item: methionine; QD, dose not given, 0 h, mean, cycle 1 day 50: 70400 ng/mL

Study 3 — effect on: enzyme activity; mode: inhibitor; concentration: 0.5 µM; baseline: control; quantity: remaining activity
Target: cGMP-dependent protein kinase 1, isoform beta (PRKG1, Homo sapiens, UniProt Q13976)
Chain of UniProt Q13976 (whole entry, looked up): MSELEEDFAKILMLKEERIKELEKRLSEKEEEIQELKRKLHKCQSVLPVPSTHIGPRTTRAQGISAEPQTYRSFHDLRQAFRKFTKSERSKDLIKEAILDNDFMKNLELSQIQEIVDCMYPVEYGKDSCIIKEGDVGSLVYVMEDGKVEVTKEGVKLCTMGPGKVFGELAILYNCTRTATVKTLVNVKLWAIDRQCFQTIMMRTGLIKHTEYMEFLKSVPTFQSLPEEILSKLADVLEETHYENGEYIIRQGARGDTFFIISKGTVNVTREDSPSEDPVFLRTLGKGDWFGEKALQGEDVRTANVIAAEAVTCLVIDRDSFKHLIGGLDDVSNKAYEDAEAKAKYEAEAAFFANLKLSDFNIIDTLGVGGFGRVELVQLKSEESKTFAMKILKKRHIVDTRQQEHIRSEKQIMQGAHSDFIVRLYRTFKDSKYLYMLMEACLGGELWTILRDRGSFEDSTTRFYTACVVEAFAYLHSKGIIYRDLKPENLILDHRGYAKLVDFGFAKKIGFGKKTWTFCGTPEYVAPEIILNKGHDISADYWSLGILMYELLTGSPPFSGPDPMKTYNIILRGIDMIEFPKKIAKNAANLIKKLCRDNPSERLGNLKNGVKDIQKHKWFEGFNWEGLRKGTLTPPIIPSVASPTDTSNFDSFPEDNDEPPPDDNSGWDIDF
COc1ccc(CNC(=O)Nc2ncc([N+](=O)[O-])s2)cc1: 97.3%
O=C1NC(=O)C(c2cn(CCCO)c3ncccc23)=C1c1cnccn1: 78.8%
CNC(=O)c1cc(Oc2ccc(NC(=O)Nc3ccc(Cl)c(C(F)(F)F)c3)cc2)ccn1: 104%
O=C(Nc1cccc(Nc2cc(Nc3cccc(C(F)(F)F)c3)ncn2)c1)C1CC1: 90.6%
Cc1nc(-c2ccccc2)c(-c2ccncc2)o1: 96.1%
COc1ccc(OC)c2c(=S)c3ccccc3[nH]c12: 94.4%
O=S(=O)(c1cccc2cnccc12)N1CCCNCC1: 87.7%
Nc1ncnc2n[nH]c(Nc3ccc(F)cc3)c12: 96.9%
O=C1NC(=O)c2cc(Nc3ccc(F)cc3)c(Nc3ccc(F)cc3)cc21: 103%
Cc1ccc(NC(=O)c2ccc(CN3CCN(C)CC3)cc2)cc1Nc1nc(-c2cccnc2)cs1: 93.8%
Cn1sc(=O)n(Cc2ccccc2)c1=O: 93.2%
O=c1c2ccccc2[nH]c(=S)n1CCN1CCC(=C(c2ccc(F)cc2)c2ccc(F)cc2)CC1: 95.7%
O=C(CCCc1ccc(-c2ccccc2F)cc1)Nc1ccc(O)cc1: 99.9%
CCOC(=O)c1c(C)[nH]c(/C=C2\C(=O)Nc3ccccc32)c1C: 92.8%
Cc1cccc(-c2[nH]c(C(C)(C)C)nc2-c2ccc3c(c2)OCO3)n1: 91%
NCCNc1ncc(C(N)=O)c(Nc2cccc(C(F)(F)F)c2)n1: 89.9%

Study 4 — route: subcutaneous; dose: 0.3 mg/kg/day DON equivalent; time: 5 days; reading: higher = more metabolite; quantity: metabolite peak area
SMILES: CC(=O)N[C@@H](Cc1c[nH]c2ccccc12)C(=O)N[C@@H](CCC(=O)C=[N+]=[N-])C(=O)OC(C)C
UPLC-MS/MS, item: uracil; C57BL/6 CES1-/- mice, EL4 tumour: 2.07e+08 a.u. and 2.91e+08 a.u. and 2.74e+08 a.u. and 1.74e+08 a.u. and 2.54e+08 a.u. and 2.66e+08 a.u.
UPLC-MS/MS, item: 2-aminophenol sulfate; C57BL/6 CES1-/- mice, EL4 tumour: 79900 a.u. and 71500 a.u. and 35400 a.u. and 77000 a.u. and 139000 a.u. and 103000 a.u.
UPLC-MS/MS metabolomics, item: dimethylarginine (ADMA + SDMA); EL4, C57BL/6 CES1-/- mice, EL4 tumour, tumour: 7.07e+08 a.u. and 8.37e+08 a.u. and 7.84e+08 a.u. and 5.87e+08 a.u. and 8.93e+08 a.u. and 7.63e+08 a.u.
UPLC-MS/MS metabolomics, item: galactitol; EL4, C57BL/6 CES1-/- mice, EL4 tumour, tumour: 1.91e+06 a.u. and 3.58e+06 a.u. and 2.62e+06 a.u. and 3.54e+06 a.u. and 2.85e+06 a.u. and 2.28e+06 a.u.
UPLC-MS/MS metabolomics, item: fumarate; EL4, C57BL/6 CES1-/- mice, EL4 tumour, tumour: 1.15e+08 a.u. and 1.9e+08 a.u. and 1.64e+08 a.u. and 1.07e+08 a.u. and 1.63e+08 a.u. and 1.67e+08 a.u.

A few entries again (study 1):
Tyrosine-protein kinase JAK3, JH1 (JAK3, Homo sapiens, UniProt P52333); cell-free assay: 93%
Tyrosine-protein kinase ABL1, phosphorylated (ABL1, Homo sapiens, UniProt P00519, M351T); cell-free assay: 100%
Mitogen-activated protein kinase 14 (MAPK14, Homo sapiens, UniProt Q16539); cell-free assay: 100%
Serine/threonine-protein kinase Nek1 (NEK1, Homo sapiens, UniProt Q96PY6); cell-free assay: 100%
Mitogen-activated protein kinase kinase kinase 7 (MAP3K7, Homo sapiens, UniProt O43318); cell-free assay: 93%
